Results gathered from unrelated publications.
Lines come from different studies, so protocols differ.
BRD4: Bromodomain-containing protein 4 (BRD4, Homo sapiens, UniProt O60885)
BRD4 BD1: Bromodomain-containing protein 4, BD1 (BRD4, Homo sapiens, UniProt O60885)
BRD4 BD2: Bromodomain-containing protein 4, BD2 (BRD4, Homo sapiens, UniProt O60885)

| SMILES | target | assay | test system | endpoint | value |
| --- | --- | --- | --- | --- | --- |
| COc1cc(N2CCN(C)CC2)ccc1Nc1ncc2c(n1)N(C)c1ccc(C)cc1C(=O)N2CC(F)(F)F | BRD4 | binding, AlphaScreen | – | IC50 | > 10000 nM |
| COCCOCCOCCOC(=O)c1cnc2cc(-c3c(C)noc3C)c(OC)cc2c1N[C@H](C)c1ccccn1 | BRD4 | binding, ITC | – | Kd | 1500 nM |
| Cn1cc(-c2cc(N3CCCS3(=O)=O)ccc2N[C@H]2CC[C@@](C)(O)CC2)c2cc[nH]c2c1=O | BRD4 BD1 | cell-free assay, TR-FRET | – | IC50 | 1.24 nM |
| Cc1sc2c(c1C)C(c1ccc(Cl)cc1)=N[C@@H](CC(=O)NCCOCCOCCOCCOCCOCCOCCOCCNC(=O)C[C@@H]1N=C(c3ccc(Cl)cc3)c3c(sc(C)c3C)-n3c(C)nnc31)c1nnc(C)n1-2 | BRD4 | target engagement, NanoBRET | HEK293, live | IC50 | 30 nM |
| CCNC(=O)c1ccc(CNC(=O)c2cccc(-c3c(C)noc3C)c2)cc1 | BRD4 BD1 | binding, SPR | – | Kd | 2500 nM |
| COC(=O)N1c2ccc3cn(CCc4ccccc4)nc3c2CC[C@@H]1C | Bromodomain-containing protein 4, BD1 and BD2 (BRD4, Homo sapiens, UniProt O60885) | binding, inhibitor | – | IC50 | > 25000 nM |
| COCCN1CCCN(c2ccc(Oc3ccc(F)cc3F)c(-c3cn(C)c(=O)c4[nH]ccc34)c2)S1(=O)=O | BRD4 BD1 | cell-free assay, TR-FRET | – | IC50 | 0.65 nM |
| Cc1ncsc1-c1ccc(CNC(=O)[C@@H]2C[C@@H](O)CN2C(=O)[C@@H](NC(=O)COCC(C)(COCCOCCOCCNC(=O)C[C@@H]2N=C(c3ccc(Cl)cc3)c3c(sc(C)c3C)-n3c(C)nnc32)COCCOCCOCCNC(=O)C[C@@H]2N=C(c3ccc(Cl)cc3)c3c(sc(C)c3C)-n3c(C)nnc32)C(C)(C)C)cc1 | BRD4 BD2 | ligand displacement, AlphaScreen | – | IC50 | 205 nM |
| Cc1ncsc1-c1ccc([C@@H]2CCCCCCNC(=O)C[C@@H]3N=C(c4ccc(cc4)OCCCCCC(=O)N[C@@H](C(C)(C)C)C(=O)N4C[C@H](O)C[C@H]4C(=O)N2)c2c(sc(C)c2C)-n2c(C)nnc23)cc1 | BRD4 BD2 | binding, BLI | – | Kd | 36.2 nM |
| CNC(=O)CCN(Cc1ccc(C(F)F)cc1)C(=O)c1cc2c(OC)ccc(-c3ccc(=O)n(C)c3)c2s1 | BRD4 BD2 | binding, competition with immobilised ligand | – | Kd | 950 nM |
| COCCN1CCN(c2ccc(Oc3ccc(F)cc3F)c(-c3cn(C)c(=O)c4[nH]ccc34)c2)S1(=O)=O | BRD4 BD1 | cell-free assay, TR-FRET | – | IC50 | 0.2 nM |
| COC(=O)CCNc1nc(-c2ccc(Cl)cc2)c2ccccc2n1 | BRD4 BD2 | cell-free assay, TR-FRET | – | IC50 | 18100 nM |
| Cn1cc(-c2cc(N3CCCCS3(=O)=O)ccc2N[C@H]2CC[C@](C)(O)CC2)c2cc[nH]c2c1=O | BRD4 BD1 | cell-free assay, TR-FRET | – | IC50 | 3.22 nM |
| COc1ccccc1OC1=C(Oc2ccccc2OC)C(=O)c2ccccc2C1=O | BRD4 BD1 | BD1 acetylated peptide binding, inhibitor, HTRF | – | IC50 | 480 nM |
| CN1CCN(CCN2CCCN(c3ccc(Oc4ccc(F)cc4F)c(-c4cn(C)c(=O)c5[nH]ccc45)c3)S2(=O)=O)CC1 | BRD4 BD1 | cell-free assay, TR-FRET | – | IC50 | 0.99 nM |
| CCNC(=O)[C@H](C)NC(=O)Cn1cc(-c2c(C)noc2C)cn1 | BRD4 BD1 | binding, SPR | – | Kd | 51 nM |

Excerpt of the above:
| SMILES | target | assay | test system | endpoint | value |
| --- | --- | --- | --- | --- | --- |
| CN1CCN(CCN2CCCN(c3ccc(Oc4ccc(F)cc4F)c(-c4cn(C)c(=O)c5[nH]ccc45)c3)S2(=O)=O)CC1 | BRD4 BD1 | cell-free assay, TR-FRET | – | IC50 | 0.99 nM |
